Assay results from different studies.
Compare with care: the assays were run in different laboratories.
CA2: Carbonic anhydrase 2 (CA2, Homo sapiens, UniProt P00918)
TMEM97: Sigma intracellular receptor 2 (TMEM97, Homo sapiens, UniProt Q5BJF2)
UniProt Q5BJF2, sequence (whole entry, looked up): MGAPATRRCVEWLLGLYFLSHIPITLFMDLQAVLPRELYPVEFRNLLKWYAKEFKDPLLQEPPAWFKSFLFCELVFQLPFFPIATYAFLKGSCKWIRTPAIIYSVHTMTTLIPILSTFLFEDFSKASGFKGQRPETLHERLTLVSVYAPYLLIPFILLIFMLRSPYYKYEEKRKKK
PFF0160c E182D: Dihydroorotate dehydrogenase (quinone), mitochondrial (PFF0160c, Plasmodium falciparum, UniProt Q08210, E182D)
CA1: Carbonic anhydrase 1 (CA1, Homo sapiens, UniProt P00915)
UniProt P00915, sequence (whole entry, looked up): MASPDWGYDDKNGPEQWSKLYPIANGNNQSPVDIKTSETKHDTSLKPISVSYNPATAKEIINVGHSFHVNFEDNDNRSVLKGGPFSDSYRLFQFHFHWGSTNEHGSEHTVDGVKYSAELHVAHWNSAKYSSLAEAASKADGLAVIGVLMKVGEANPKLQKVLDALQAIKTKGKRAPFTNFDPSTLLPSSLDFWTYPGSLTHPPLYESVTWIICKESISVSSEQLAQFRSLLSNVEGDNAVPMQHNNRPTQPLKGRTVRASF
sapA: sapA (Haemophilus influenzae, UniProt Q4QL73)
APLNR: Apelin receptor (APLNR, Homo sapiens, UniProt P35414)
UniProt P35414, sequence (whole entry, looked up): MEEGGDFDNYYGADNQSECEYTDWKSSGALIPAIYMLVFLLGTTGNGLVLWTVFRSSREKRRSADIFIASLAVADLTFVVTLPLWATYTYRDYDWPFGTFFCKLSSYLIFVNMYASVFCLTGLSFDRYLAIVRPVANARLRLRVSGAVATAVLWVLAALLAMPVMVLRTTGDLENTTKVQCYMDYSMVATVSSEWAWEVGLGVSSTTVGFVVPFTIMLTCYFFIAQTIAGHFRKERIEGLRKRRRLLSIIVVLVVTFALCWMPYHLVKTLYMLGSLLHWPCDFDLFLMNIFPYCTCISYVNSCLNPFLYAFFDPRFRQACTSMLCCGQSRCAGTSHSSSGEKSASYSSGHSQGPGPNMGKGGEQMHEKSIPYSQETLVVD
PFF0160c: Dihydroorotate dehydrogenase (quinone), mitochondrial (PFF0160c, Plasmodium falciparum, UniProt Q08210)
Penicillin-binding protein 2X: Penicillin-binding protein 2X (Streptococcus pneumoniae R6, UniProt P59676)
CA12: Carbonic anhydrase 12 (CA12, Homo sapiens, UniProt O43570)
UniProt O43570, sequence (whole entry, looked up): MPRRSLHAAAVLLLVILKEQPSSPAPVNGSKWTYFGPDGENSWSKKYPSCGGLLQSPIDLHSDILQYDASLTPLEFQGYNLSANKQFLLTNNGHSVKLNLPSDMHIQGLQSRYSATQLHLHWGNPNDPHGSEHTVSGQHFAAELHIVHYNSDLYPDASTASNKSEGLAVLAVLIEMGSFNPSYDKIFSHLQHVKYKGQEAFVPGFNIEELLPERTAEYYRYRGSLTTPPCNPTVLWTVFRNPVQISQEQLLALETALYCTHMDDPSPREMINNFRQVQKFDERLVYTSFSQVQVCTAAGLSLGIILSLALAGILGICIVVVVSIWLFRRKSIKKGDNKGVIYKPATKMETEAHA
UniProt Q9GZQ4, sequence (whole entry, looked up): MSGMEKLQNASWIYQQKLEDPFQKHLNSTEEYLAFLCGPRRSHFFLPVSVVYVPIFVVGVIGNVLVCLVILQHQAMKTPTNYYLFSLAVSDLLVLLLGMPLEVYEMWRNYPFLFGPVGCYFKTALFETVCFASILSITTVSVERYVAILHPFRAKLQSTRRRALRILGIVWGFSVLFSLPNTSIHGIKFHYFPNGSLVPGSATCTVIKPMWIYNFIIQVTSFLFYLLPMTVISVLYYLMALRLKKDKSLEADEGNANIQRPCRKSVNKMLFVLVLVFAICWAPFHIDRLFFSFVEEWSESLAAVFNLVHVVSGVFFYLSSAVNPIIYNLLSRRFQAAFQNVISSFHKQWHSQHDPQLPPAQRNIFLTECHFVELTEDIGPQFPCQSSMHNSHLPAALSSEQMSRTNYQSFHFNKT
UniProt Q9Y5Y6, sequence (whole entry, looked up): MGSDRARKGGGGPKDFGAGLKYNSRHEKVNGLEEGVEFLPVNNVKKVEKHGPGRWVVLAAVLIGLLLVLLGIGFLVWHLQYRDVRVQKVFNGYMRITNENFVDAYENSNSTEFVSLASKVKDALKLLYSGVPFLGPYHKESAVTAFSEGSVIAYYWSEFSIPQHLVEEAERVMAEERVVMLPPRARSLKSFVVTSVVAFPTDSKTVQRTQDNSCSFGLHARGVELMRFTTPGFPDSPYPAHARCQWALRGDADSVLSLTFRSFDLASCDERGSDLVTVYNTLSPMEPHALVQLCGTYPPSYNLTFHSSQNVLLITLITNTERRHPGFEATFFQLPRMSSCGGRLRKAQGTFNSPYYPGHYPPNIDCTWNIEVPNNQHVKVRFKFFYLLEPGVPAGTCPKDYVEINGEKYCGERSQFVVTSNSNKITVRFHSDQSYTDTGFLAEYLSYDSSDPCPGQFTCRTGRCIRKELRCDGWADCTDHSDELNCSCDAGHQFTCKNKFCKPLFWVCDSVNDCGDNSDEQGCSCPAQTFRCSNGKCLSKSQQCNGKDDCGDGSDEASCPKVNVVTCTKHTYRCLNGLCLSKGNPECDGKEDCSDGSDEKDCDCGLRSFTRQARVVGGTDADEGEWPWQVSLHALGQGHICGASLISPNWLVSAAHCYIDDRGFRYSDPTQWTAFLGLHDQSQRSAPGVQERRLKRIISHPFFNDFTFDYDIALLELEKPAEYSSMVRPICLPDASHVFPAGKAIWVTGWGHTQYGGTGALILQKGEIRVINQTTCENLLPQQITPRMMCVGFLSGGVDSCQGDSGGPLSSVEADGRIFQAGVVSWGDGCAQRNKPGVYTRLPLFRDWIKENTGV
UniProt P08173, sequence (whole entry, looked up): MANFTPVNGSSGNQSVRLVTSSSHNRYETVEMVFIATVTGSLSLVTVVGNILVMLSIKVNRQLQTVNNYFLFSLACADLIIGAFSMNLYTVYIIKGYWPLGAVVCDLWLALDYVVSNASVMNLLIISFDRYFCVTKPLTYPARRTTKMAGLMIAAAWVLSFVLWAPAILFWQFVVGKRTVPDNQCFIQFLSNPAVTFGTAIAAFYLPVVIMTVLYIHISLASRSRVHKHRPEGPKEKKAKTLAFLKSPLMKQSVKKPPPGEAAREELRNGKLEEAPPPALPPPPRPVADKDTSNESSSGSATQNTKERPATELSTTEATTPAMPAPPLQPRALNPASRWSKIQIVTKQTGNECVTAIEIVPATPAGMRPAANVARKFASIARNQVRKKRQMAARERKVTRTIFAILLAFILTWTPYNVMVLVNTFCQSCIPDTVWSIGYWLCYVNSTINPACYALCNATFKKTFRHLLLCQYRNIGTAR
UniProt P25440, sequence (whole entry, looked up): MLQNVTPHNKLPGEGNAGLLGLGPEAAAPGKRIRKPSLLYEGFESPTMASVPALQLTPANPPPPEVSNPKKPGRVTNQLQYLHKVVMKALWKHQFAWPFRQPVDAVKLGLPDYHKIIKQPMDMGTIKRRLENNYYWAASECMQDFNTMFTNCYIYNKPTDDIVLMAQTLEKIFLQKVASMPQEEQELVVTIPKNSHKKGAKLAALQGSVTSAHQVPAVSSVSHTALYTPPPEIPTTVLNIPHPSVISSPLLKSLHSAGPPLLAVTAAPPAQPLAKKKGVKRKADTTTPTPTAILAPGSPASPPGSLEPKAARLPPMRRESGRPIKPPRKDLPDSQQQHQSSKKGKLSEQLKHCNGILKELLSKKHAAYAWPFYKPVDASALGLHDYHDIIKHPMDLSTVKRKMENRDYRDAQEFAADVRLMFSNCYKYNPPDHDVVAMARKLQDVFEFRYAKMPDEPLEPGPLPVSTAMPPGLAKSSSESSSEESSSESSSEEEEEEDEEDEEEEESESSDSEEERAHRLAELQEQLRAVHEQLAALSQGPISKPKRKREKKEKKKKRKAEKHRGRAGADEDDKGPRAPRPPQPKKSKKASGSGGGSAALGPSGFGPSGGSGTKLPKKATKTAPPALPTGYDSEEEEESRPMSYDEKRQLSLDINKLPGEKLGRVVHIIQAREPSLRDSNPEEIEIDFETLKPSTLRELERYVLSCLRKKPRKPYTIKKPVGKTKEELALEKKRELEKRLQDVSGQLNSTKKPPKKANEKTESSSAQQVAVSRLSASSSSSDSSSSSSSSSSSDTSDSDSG
UniProt P20248, sequence (whole entry, looked up): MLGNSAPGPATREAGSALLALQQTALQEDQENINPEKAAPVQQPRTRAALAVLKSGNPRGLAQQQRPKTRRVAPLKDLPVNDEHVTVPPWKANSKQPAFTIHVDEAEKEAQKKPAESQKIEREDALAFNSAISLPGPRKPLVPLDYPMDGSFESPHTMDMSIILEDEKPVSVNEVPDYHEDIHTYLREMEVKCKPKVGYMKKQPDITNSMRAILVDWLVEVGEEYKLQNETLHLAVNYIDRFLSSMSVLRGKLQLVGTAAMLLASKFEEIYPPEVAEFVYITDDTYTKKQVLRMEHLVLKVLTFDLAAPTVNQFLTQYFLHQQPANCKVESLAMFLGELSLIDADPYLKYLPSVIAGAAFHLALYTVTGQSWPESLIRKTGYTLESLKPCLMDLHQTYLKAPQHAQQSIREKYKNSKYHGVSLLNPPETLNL
UniProt Q04206, sequence (whole entry, looked up): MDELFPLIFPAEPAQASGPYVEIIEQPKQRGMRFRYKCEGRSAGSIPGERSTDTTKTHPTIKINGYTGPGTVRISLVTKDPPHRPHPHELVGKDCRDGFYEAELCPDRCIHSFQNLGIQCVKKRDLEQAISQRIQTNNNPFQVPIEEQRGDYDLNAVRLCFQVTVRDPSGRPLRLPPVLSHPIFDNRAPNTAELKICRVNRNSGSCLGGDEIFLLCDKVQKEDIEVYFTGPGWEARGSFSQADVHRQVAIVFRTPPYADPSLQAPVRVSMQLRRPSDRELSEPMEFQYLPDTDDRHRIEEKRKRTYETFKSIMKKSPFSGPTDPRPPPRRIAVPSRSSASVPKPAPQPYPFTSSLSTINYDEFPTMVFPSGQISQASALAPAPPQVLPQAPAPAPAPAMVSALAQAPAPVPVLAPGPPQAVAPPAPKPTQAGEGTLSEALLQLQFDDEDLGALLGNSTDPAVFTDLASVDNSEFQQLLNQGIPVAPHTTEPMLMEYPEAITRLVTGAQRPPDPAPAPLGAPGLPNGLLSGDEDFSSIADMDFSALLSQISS

| Compound | target | assay | measurement | value |
| --- | --- | --- | --- | --- |
| COc1cc2c(cc1OC)CN(CCc1ccc(NC(=O)c3cccc4c(=O)c5cccc(OC)c5[nH]c34)cc1)CC2 | CHRM4 (Homo sapiens, UniProt P08173) | cell-free assay | Ki | 954 nM |
| O=C(Nc1ccc2c(c1)C=CCP(=O)(O)O2)Nc1ccccc1Br | CA2 | enzyme activity, inhibitor, stopped-flow | Ki | > 10000 nM |
| CC(C)C[C@H](NC(=O)[C@H](CCCNC(=N)N)NC(=O)[C@H](CCCNC(=N)N)NC(=O)[C@H](CCCCN)NC(=O)[C@@H](NC(=O)[C@@H]1CCCN1C(=O)[C@@H]1CCCN1C(=O)[C@H](CCCNC(=N)N)NC(=O)CNC(=O)c1ccc(-c2c3ccc(=[N+](C)C)cc-3oc3cc(N(C)C)ccc23)c(C(=O)[O-])c1)C(C)C)C(=O)N[C@@H](CC(=O)O)C(=O)N[C@@H](CC(C)C)C(=O)N[C@@H](CCC(=O)O)C(=O)N[C@H](C(=O)N[C@@H](CC(=O)O)C(=O)N[C@@H](Cc1c[nH]cn1)C(=O)N[C@@H](CCC(N)=O)C(=O)O)[C@@H](C)O | Cyclin-A2 (CCNA2, Homo sapiens, UniProt P20248) | binding, FP | Kd | 510 nM |
| CC/C(=C(\c1ccccc1)c1ccc(OCCN(C)C)cc1)c1ccccc1 | TMEM97 | ligand displacement, radioligand | Ki | 407 nM |
| CC(=O)c1c(Cc2cccc(C(F)(F)F)c2)c[nH]c1C | PFF0160c E182D | enzyme activity, inhibitor, absorbance | IC50 | 537 nM |
| Cc1ccc(NC(=O)Nc2ccc3c(c2)C=CCP(=O)(O)O3)cc1 | CA1 | enzyme activity, inhibitor, stopped-flow | Ki | > 10000 nM |
| CC(CN1c2ccccc2Sc2ccccc21)N(C)C (stereo not drawn) | TMEM97 | ligand displacement, radioligand | Ki | 2140 nM |
| C[C@@H](O)[C@H](NC(=O)CNC(=O)[C@H](Cc1ccc(O)cc1)NC(=O)[C@H](CCCNC(=N)N)NC(=O)[C@@H](N)CCCNC(=N)N)C(=O)O | sapA | binding | Kd | 5.4 nM |
| CC[C@H](C)[C@H](NC(=O)[C@H](CO)NC(=O)[C@H](Cc1c[nH]cn1)NC(=O)[C@H](CC(C)C)NC(=O)[C@H](CC(C)C)NC(=O)[C@H](CCCNC(=N)N)NC(=O)[C@H](CS)NC(=O)[C@H](CC(C)C)NC(=O)[C@H](CCC(=O)O)NC(=O)[C@H](CCCCN)NC(=O)[C@@H](N)CO)C(=O)NCC(=O)N1CCC[C@H]1C(=O)N[C@@H](Cc1ccccc1)C(=O)N1CCC[C@H]1C(=O)O | APLNR | calcium signal, agonist, fluorescence | EC50 | 2230 nM |
| C=CCn1c(SCC(=O)Nc2cc(C)ccc2OC)nc2sc(C)cc2c1=O | PFF0160c | enzyme activity, inhibitor, absorbance | IC50 | 7530 nM |
| CC[C@H](C)[C@H](NC(=O)[C@H](CCSC)NC(=O)[C@H](CC(N)=O)NC(=O)[C@@H](NC(=O)[C@H](Cc1ccc(O)cc1)NC(=O)[C@H](Cc1ccc(O)cc1)NC(=O)[C@H](CCCNC(=N)N)NC(=O)[C@H](CC(C)C)NC(=O)[C@H](CCC(=O)O)NC(=O)[C@H](CCCNC(=N)N)NC(=O)[C@H](CCC(=O)O)NC(=O)[C@H](Cc1c[nH]c2ccccc12)NC(=O)[C@H](CCC(=O)O)NC(=O)[C@H](CCCNC(=N)N)NC(=O)[C@H](CCC(=O)O)NC(=O)[C@@H](NC(=O)[C@H](CC(C)C)NC(=O)[C@H](Cc1c[nH]cn1)NC(=O)[C@H](CO)NC(=O)[C@@H]1CCCN1C(=O)[C@@H]1CCCN1)[C@@H](C)O)[C@@H](C)O)C(=O)N[C@@H](CCCNC(=N)N)C(=O)N[C@@H](CC(C)C)C(=O)N[C@@H](CC(C)C)C(=O)N[C@@H](CCSC)C(=O)O | APLNR | calcium signal, agonist, fluorescence | EC50 | 2900 nM |
| CC(C)=CCC[C@](C)(O)[C@H]1CC[C@]2(C)[C@@H]1[C@H](O)C[C@@H]1[C@@]3(C)CC[C@H](O)C(C)(C)[C@@H]3[C@@H](O[C@@H]3O[C@H](CO)[C@@H](O)[C@H](O)[C@H]3O)C[C@]12C | RELA (Homo sapiens, UniProt Q04206) | binding, BLI | Kd | 1020 nM |
| C[C@@H]1CN(c2ccc(O)c(NS(=O)(=O)c3ccc(-c4ccco4)cc3)c2)C[C@H](C)N1 | PFF0160c | enzyme activity, inhibitor, absorbance | IC50 | 6000 nM |
| O=C(Nc1ccc2c(c1)C=CCP(=O)(O)O2)c1ccc(I)cc1 | CA2 | enzyme activity, inhibitor, stopped-flow | Ki | > 10000 nM |
| N=C(N)NCCC[C@H](NC(=O)[C@H](Cc1ccccc1)NC(=O)[C@H](CCC(N)=O)NC(=O)OCc1ccccc1)C(=O)c1nccs1 | ST14 (Homo sapiens, UniProt Q9Y5Y6) | cell-free assay | Ki | 1.1 nM |
| O=C(CN1CCN(C(=O)c2ccco2)CC1)Nc1ccccc1Br | PFF0160c | enzyme activity, inhibitor, absorbance | IC50 | 1640 nM |
| CCn1cc(Cl)c2c(Cc3ccc(N4CCCCC4)nc3)n(C)nc2c1=O | PFF0160c | enzyme activity, inhibitor | IC50 | 15.8 nM |
| CN(C)CCCN1c2ccccc2Sc2ccc(Cl)cc21 | TMEM97 | ligand displacement, radioligand | Ki | 1630 nM |
| CCOC(=O)c1nn(C)c(Cc2ccc(C(F)(F)F)nc2)c1C | PFF0160c | enzyme activity, inhibitor | IC50 | 398 nM |
| CSCC[C@H](NC(=O)[C@H](C)NC(=O)[C@H](CCCNC(=N)N)NC(=O)[C@H](Cc1ccc(O)cc1)NC(=O)[C@H](CC(N)=O)NC(=O)[C@H](Cc1ccccc1)NC(=O)[C@H](CCCNC(=N)N)NC(=O)[C@H](CCCCN)NC(=O)[C@H](CCC(N)=O)NC(=O)[C@H](CC(C)C)NC(=O)[C@H](CO)NC(=O)[C@@H](NC(=O)[C@H](C)N)[C@@H](C)O)C(=O)N[C@@H](CC(C)C)C(=O)N[C@@H](CC(C)C)C(=O)O | APLNR | calcium signal, agonist, fluorescence | EC50 | 756 nM |
| CCCOc1ccccc1-c1nc2sc3c(c2c(=O)[nH]1)CCN(C)C3 | PFF0160c | enzyme activity, inhibitor, absorbance | IC50 | 699 nM |

| Compound | target | assay | measurement | value |
| --- | --- | --- | --- | --- |
| FC(F)(F)c1ccc(OCCn2c(CNCC34CC5CC(CC(C5)C3)C4)nc3ccccc32)cc1 | Penicillin-binding protein 2X | binding, MST | Kd | 90000 nM |
| Cc1[nH]c(C)c(-c2ccc(OCCn3cnc(Cl)c3Cl)cc2)c(=O)c1Br | PFF0160c E182D | enzyme activity, inhibitor, absorbance | IC50 | > 10000 nM |
| COc1ccc(CCN2CCC(Nc3nc4ccccc4n3Cc3ccc(F)cc3)CC2)cc1 | TMEM97 | ligand displacement, radioligand | Ki | 84.2 nM |
| O=C(Nc1ccc2c(c1)C=CCP(=O)(O)O2)c1ccc(Cl)cc1 | CA1 | enzyme activity, inhibitor, stopped-flow | Ki | > 10000 nM |
| Cc1c(C(=O)Nc2cc(Cl)cc(Cl)c2)cccc1[N+](=O)[O-] | PFF0160c | enzyme activity, inhibitor, absorbance | IC50 | 2410 nM |
| Cc1cn([C@H]2C[C@H](OP(=O)(O)OC[C@H]3O[C@@H](n4cc(C)c(=O)[nH]c4=O)C[C@@H]3O)[C@@H](COP(=O)(O)OP(=O)(O)OP(=O)(O)O)O2)c(=O)[nH]c1=O | dgt (Salmonella enterica, UniProt A0A5H6DAK1, E129A/H126A) | binding, ITC | Kd | 44 nM |
| O=C(CN1CCC(CN2Cc3ccccc3C2=O)CC1)c1ccc(F)cc1 | TMEM97 | ligand displacement, radioligand | Ki | 88.4 nM |
| O=C(Nc1ccc2c(c1)C=CCP(=O)(O)O2)c1ccccc1Br | CA12 | enzyme activity, inhibitor, stopped-flow | Ki | 8.9 nM |
| CC[C@H](C)[C@H](NC(=O)[C@H](CCC(N)=O)NC(=O)[C@H](CCC(=O)O)NC(=O)[C@H](CCC(=O)O)NC(=O)[C@H](CCCCN)NC(=O)[C@@H]1CCCN1)C(=O)NCC(=O)N[C@@H](CCCCN)C(=O)O | sapA | binding | Kd | 3.6 nM |
| Cc1cccc(NCc2nc3ccccc3n2CCOc2ccccc2)c1 | Penicillin-binding protein 2X | binding, MST | Kd | 380000 nM |
| COC(=O)C[C@@H]1N=C(c2cc3ccccc3c3ccccc23)c2cc(OC)ccc2-n2c(C)nnc21 | Bromodomain-containing protein 2, BD2 (BRD2, Homo sapiens, UniProt P25440) | binding, SPR | Kd | 9460 nM |
| CN1CCN(C2=Nc3cc(Cl)ccc3Nc3ccccc32)CC1 | TMEM97 | ligand displacement, radioligand | Ki | 8800 nM |
| O=C(Nc1ccc(Br)cc1)Nc1ccc2c(c1)C=CCP(=O)(O)O2 | CA1 | enzyme activity, inhibitor, stopped-flow | Ki | > 10000 nM |
| NC(=O)CC[C@H](NC(=O)[C@H](CCC(=O)O)NC(=O)[C@H](CCC(=O)O)NC(=O)[C@H](CO)NC(=O)[C@@H]1CCCN1)C(=O)O | sapA | binding | Kd | 339 nM |
| O=c1cc(NCCCNCc2sc(Br)c(Br)c2Br)[nH]c2ccccc12 | PFF0160c E182D | enzyme activity, inhibitor, absorbance | IC50 | 2420 nM |
| CC[C@H](C)[C@H](NC(=O)CNC(=O)[C@H](C)NC(=O)[C@@H]1CCCN1C(=O)[C@@H](NC(=O)[C@H](CCCNC(=N)N)NC(=O)[C@@H](N)CO)[C@@H](C)CC)C(=O)N[C@@H](C)C(=O)NCC(=O)N[C@@H](CCC(=O)O)C(=O)N[C@@H](CCCNC(=N)N)C(=O)N[C@@H](CCCNC(=N)N)C(=O)N[C@@H](Cc1ccc(O)cc1)C(=O)N[C@@H](CO)C(=O)NCC(=O)NCC(=O)NCC(=O)NCC(=O)N[C@@H](CO)C(=O)N1CCC[C@H]1C(=O)N[C@@H](C)C(=O)N1CCC[C@H]1C(=O)N[C@@H](C)C(=O)N[C@@H](CCCCN)C(=O)O | sapA | binding | Kd | 3.8 nM |
| COc1ccc(C(=O)Nc2ccc3c(c2)C=CCP(=O)(O)O3)cc1 | CA12 | enzyme activity, inhibitor, stopped-flow | Ki | 8.1 nM |
| N=C(N)NCCC[C@H](NC(=O)[C@@H](N)CO)C(=O)N[C@@H](Cc1ccc(O)cc1)C(=O)N[C@@H](CCCCN)C(=O)N[C@@H](CCC(N)=O)C(=O)O | sapA | binding | Kd | 34 nM |
| c1ccc(OCCn2c(CNCC34CC5CC(CC(C5)C3)C4)nc3ccccc32)cc1 | Penicillin-binding protein 2X | binding, MST | Kd | 55000 nM |
| O=C(Nc1ccc(Cl)cc1)Nc1ccc2c(c1)C=CCP(=O)(O)O2 | CA12 | enzyme activity, inhibitor, stopped-flow | Ki | > 10000 nM |
| CC(C)C[C@H](NC(=O)[C@H](Cc1ccccc1)NC(=O)[C@H](Cc1ccc(O)cc1)NC(=O)CNC(=O)[C@H](CCCCN)NC(=O)[C@H](CO)NC(=O)[C@H](CCC(N)=O)NC(=O)CNC(=O)[C@@H](NC(=O)[C@H](CO)NC(=O)[C@@H]1CCCN1C(=O)[C@H](CO)NC(=O)[C@H](CCC(N)=O)NC(=O)[C@H](Cc1ccc(O)cc1)NC(=O)[C@H](CCC(=O)O)NC(=O)[C@H](C)NC(=O)[C@H](CCCCN)NC(=O)[C@@H](N)Cc1ccccc1)C(C)C)C(=O)N[C@@H](Cc1ccccc1)C(=O)N[C@@H](CCCNC(=N)N)C(=O)N1CCC[C@H]1C(=O)N[C@@H](CCCNC(=N)N)C(=O)N[C@@H](CC(N)=O)C(N)=O | NMUR2 (Homo sapiens, UniProt Q9GZQ4) | β-arrestin recruitment, agonist | EC50 | 1.07 nM |

Excerpt of the above:
| Compound | target | assay | measurement | value |
| --- | --- | --- | --- | --- |
| O=C(Nc1ccc(Br)cc1)Nc1ccc2c(c1)C=CCP(=O)(O)O2 | CA1 | enzyme activity, inhibitor, stopped-flow | Ki | > 10000 nM |
| NC(=O)CC[C@H](NC(=O)[C@H](CCC(=O)O)NC(=O)[C@H](CCC(=O)O)NC(=O)[C@H](CO)NC(=O)[C@@H]1CCCN1)C(=O)O | sapA | binding | Kd | 339 nM |
| O=c1cc(NCCCNCc2sc(Br)c(Br)c2Br)[nH]c2ccccc12 | PFF0160c E182D | enzyme activity, inhibitor, absorbance | IC50 | 2420 nM |
| CC[C@H](C)[C@H](NC(=O)CNC(=O)[C@H](C)NC(=O)[C@@H]1CCCN1C(=O)[C@@H](NC(=O)[C@H](CCCNC(=N)N)NC(=O)[C@@H](N)CO)[C@@H](C)CC)C(=O)N[C@@H](C)C(=O)NCC(=O)N[C@@H](CCC(=O)O)C(=O)N[C@@H](CCCNC(=N)N)C(=O)N[C@@H](CCCNC(=N)N)C(=O)N[C@@H](Cc1ccc(O)cc1)C(=O)N[C@@H](CO)C(=O)NCC(=O)NCC(=O)NCC(=O)NCC(=O)N[C@@H](CO)C(=O)N1CCC[C@H]1C(=O)N[C@@H](C)C(=O)N1CCC[C@H]1C(=O)N[C@@H](C)C(=O)N[C@@H](CCCCN)C(=O)O | sapA | binding | Kd | 3.8 nM |
| COc1ccc(C(=O)Nc2ccc3c(c2)C=CCP(=O)(O)O3)cc1 | CA12 | enzyme activity, inhibitor, stopped-flow | Ki | 8.1 nM |
